Published values collected from several papers.
Each line is one published result; not all experiments were run side by side. ± gives the spread as reported.

The revertant colonies of `O=C1NC2(CC2)COc2ncc(F)cc2[C@H]2COCCN2c2ccn3ncc1c3n2` is reported as 82 ± 6 revertants/plate (Salmonella typhimurium; Ames test; TA100; 50 µg/plate, 48 h, added: rat liver S9).
`Nc1ncc(-c2cc(-c3cnn(CC(F)(F)F)c3)ncc2F)nc1C(=O)NC1CNCC(F)C1` (stereo not shown) gave a remaining binding of 100% (FAK; KINOMEscan competition binding; 1 µM; relative to: DMSO control).
`[2H]C([2H])([2H])Oc1cc2c(cc1OC([2H])([2H])[2H])[C@H]1C[C@@H](O)[C@H](CC(C)C)CN1CC2` gave a half-life of 12.2 h (item: compound; human, male, plasma; oral, 25 mg [14C]-deutetrabenazine, geometric mean).
For `Cc1ncsc1-c1ccc(C(C)NC(=O)C2CC(O)CN2C(=O)C(NC(=O)CCCCCCCCCCN2CCCC(Nc3ncc(Cl)c(Nc4ccccc4S(=O)(=O)C(C)C)n3)C2)C(C)(C)C)cc1` (stereo not shown), “log2 fold change” read -1.89 (22Rv1; RNA-seq, item: PIM1 mRNA; concentration not given; relative to: DMSO).
With `CCC(CC)CNC(=N)NC(=N)NCCCCCCNC(=N)NC(=N)NCC(CC)CC` the half-life was 31.5 h (metabolic stability; dog, liver microsomes; 2 µM).
With `C=CC(=O)Nc1cccc(Cn2ncc3cnc(Nc4cnn(CCOC)c4)nc32)c1` the half-life was 0.444 h (metabolic stability; male beagle dog, hepatocytes).
For `CCCCCCCOc1ccc(CC[C@](N)(CO)COP(=O)(O)O)cc1C(F)(F)F`, the half-life was 378 h (healthy human males, plasma; oral, 0.125 mg, day 21).
`C[C@]12C[C@H](c3ccc(S(C)(=O)=O)cc3)C3=C4CC[C@@H](O)C=C4CC[C@H]3[C@@H]1CC[C@@]2(O)C(F)(F)C(F)(F)F` has a half-life of 68.1 h (human, plasma; oral, 5 mg multiple doses, day 28).
`CC[C@H](C)[C@@H]1NC(=O)[C@H](Cc2ccc(O)cc2)NC(=O)CCCSC[C@@H](C(=O)N(CC(=O)N[C@@H](CC(C)C)C(=O)NCC(N)=O)Cc2ccc(F)cc2)NC(=O)[C@H](CC(N)=O)NC(=O)[C@H](CCC(N)=O)NC1=O` has a half-life of about 0.167 h (human, plasma; intravenous infusion, 20 µg, 25 min infusion, harmonic mean).
With `C/C(N)=N/C(=N\S(=O)(=O)c1ccc(C(F)(F)F)cc1)N1C[C@H](c2ccccc2)C(c2ccc(Cl)cc2)=N1` the half-life was over 2 h (metabolic stability; dog, liver microsomes).
For `COC1CN([C@H]2CC[C@H]([C@@]3(C)Oc4c(Cl)cc(C(=O)NCc5c(SC)cc(C)[nH]c5=O)c(C)c4O3)CC2)C1`, “log2 fold change” read 0.812 (RNA-seq, item: RHPN2 mouse homolog; mouse, HT-1376 xenograft, whole blood; dose not given; relative to: vehicle).
`O=S(=O)(NCc1ccncc1)c1ccc(C2CCCCC2)cc1` has a half-life of 3.7 h (C57BL/6J mouse, male, cerebral cortex; intraperitoneal, 0.3 mg/kg).
`CCN(CC)CC#CCNc1ccnc2cc(Cl)ccc12` gave a mean revertants of 6 revertants/well (Salmonella typhimurium; mini-Ames test; TA98; 62.5 µg/well, without S9).
With `Cn1cnc([N+](=O)[O-])c1Sc1ccccc1C(=O)NCCC(N)=O` the half-life was 0.653 h (metabolic stability; cynomolgus monkey, blood; 1 µM, whole blood).
`C=C(NC(=O)c1csc(-c2nc3c(cc2O)-c2nc(cs2)C(=O)NC(C(C)O)C(=O)NC(=C(C)OC)c2nc(cs2)C(=O)NC2c4nc(cs4)C(=O)NC(COC(=O)c4c5c6c(cccc6n4O)COC(=O)C(OC4CC(C)(O)C(N(C)C)C(C)O4)C2OC5)c2nc-3cs2)n1)C(N)=O` (stereo not shown) has a half-life of 5.47 h (metabolic stability; dog, liver microsomes; 2 µM).
For `O=C(c1ccccc1)N1C(c2ccc(OCC3CCN(CCCF)C3)cc2)c2ccc(O)cc2CC12CC2` (stereo not shown), the half-life was 3.61 h (C57BL/6J mouse, plasma; intraperitoneal, 25 mg/kg, group mean).

Excerpt of the above:
With `C/C(N)=N/C(=N\S(=O)(=O)c1ccc(C(F)(F)F)cc1)N1C[C@H](c2ccccc2)C(c2ccc(Cl)cc2)=N1` the half-life was over 2 h (metabolic stability; dog, liver microsomes).
